Published values collected from several papers.
Lines come from different studies, so protocols differ. Substitutions count along the parent as printed. ± gives the spread as reported.
P1: BICD2-miniTurboID C-terminus (Homo sapiens); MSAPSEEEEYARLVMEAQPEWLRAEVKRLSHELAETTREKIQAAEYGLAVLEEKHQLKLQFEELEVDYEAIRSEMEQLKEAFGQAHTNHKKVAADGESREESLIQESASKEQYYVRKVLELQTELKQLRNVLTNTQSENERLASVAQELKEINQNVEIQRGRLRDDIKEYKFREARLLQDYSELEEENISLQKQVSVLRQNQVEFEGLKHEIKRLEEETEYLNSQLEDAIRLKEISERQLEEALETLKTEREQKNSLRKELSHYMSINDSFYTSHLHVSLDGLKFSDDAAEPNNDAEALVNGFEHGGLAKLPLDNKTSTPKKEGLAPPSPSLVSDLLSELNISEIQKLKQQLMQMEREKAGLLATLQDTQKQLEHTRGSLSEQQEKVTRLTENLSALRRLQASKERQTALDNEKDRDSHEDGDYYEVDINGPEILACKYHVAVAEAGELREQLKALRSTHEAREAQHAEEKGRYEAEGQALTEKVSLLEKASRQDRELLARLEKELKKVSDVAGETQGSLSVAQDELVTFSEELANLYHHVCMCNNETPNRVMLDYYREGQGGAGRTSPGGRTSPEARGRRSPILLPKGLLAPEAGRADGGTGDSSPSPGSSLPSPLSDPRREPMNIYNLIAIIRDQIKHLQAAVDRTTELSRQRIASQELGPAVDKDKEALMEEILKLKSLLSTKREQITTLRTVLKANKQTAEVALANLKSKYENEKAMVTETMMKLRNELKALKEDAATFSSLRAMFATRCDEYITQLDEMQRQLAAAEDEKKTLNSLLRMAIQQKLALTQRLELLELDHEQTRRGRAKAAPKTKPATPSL
UniProt G5EC86, sequence (whole entry, looked up): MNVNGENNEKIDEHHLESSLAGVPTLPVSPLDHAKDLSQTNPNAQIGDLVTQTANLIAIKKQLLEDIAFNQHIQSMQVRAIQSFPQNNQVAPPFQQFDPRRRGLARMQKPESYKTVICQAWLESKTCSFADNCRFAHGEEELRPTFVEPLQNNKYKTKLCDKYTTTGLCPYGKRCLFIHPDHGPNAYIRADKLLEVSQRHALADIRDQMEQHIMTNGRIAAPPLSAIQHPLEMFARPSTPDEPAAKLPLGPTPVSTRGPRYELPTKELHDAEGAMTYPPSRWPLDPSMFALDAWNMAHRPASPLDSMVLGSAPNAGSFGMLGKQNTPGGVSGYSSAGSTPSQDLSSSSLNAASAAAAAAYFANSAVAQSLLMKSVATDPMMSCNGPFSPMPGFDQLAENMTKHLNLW
UniProt Q15020, sequence (whole entry, looked up): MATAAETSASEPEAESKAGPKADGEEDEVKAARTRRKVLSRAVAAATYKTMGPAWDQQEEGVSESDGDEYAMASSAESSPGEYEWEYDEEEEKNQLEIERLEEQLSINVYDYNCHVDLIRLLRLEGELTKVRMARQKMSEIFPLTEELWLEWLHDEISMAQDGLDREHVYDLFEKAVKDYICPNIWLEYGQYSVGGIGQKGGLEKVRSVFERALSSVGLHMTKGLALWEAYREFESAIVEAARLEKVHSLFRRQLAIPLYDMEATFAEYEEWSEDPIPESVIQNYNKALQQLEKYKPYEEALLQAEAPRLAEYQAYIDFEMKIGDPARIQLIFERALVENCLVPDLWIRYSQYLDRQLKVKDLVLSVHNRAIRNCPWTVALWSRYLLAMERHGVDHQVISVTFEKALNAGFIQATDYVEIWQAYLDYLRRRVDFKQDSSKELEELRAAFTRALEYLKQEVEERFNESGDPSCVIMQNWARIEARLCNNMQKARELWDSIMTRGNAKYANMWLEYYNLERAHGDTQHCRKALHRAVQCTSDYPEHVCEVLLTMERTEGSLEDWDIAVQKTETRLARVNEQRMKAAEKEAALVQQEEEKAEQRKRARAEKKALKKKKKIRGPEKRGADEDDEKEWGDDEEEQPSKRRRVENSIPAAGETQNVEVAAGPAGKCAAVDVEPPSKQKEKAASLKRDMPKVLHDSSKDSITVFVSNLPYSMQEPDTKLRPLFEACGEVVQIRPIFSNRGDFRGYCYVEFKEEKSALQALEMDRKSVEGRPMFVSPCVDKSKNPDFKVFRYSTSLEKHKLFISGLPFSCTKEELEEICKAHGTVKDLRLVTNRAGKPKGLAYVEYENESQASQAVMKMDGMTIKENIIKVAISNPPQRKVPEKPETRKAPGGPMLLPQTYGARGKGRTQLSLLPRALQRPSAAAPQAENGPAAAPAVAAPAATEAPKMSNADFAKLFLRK

| Substance | target or system | test | system | setting | how to read | endpoint | value |
| --- | --- | --- | --- | --- | --- | --- | --- |
| UGGAA (ssRNA) | SART3 697-786 (Homo sapiens, UniProt Q15020) | ITC | RNA | – | – | binding | no binding |
| P1 R747C | VPS41 (Homo sapiens) | proximity biotinylation, western blot | – | 500 µM, 40 minutes, read off a plot | baseline: unchanged protein, higher = more binding | relative binding | 0.17 |
| CAUUCUACGUUAUUAAUAAUAAAUAAUAAUAAUAAUAAUAAUCUGAAUAGCG (ssRNA) | oma-1 1-182 (Caenorhabditis elegans, UniProt G5EC86) | EMSA | RNA | with: Zn2+ | – | Kd | 21 ± 1 nM |
| ACTAGTACGCGGGTAGTGAAAAATCCCCAAATTGCCCCCA (dsDNA) | Abscisic stress-ripening protein full length assumed (Triticum aestivum, UniProt A0A3B6JHN4) | EMSA | double-stranded DNA, one strand shown | – | – | binding | binds |
| UUAUUAUUUGUU (ssRNA) | oma-1 110-182 (Caenorhabditis elegans, UniProt G5EC86) | EMSA | RNA | with: Zn2+ | – | binding | no binding |
| ACCCAAAACGTTGACCAAAGTTAACT (dsDNA) | WRKY6 full length assumed (Nicotiana attenuata, UniProt Q5QJ44) | EMSA | double-stranded DNA, one strand shown | – | – | binding | binds |

A few entries again:
| Substance | target or system | test | system | setting | how to read | endpoint | value |
| --- | --- | --- | --- | --- | --- | --- | --- |
| UGGAA (ssRNA) | SART3 697-786 (Homo sapiens, UniProt Q15020) | ITC | RNA | – | – | binding | no binding |
